# Assay results collected from several papers.
# Every numbered part comes from another study and shows a few of its results, in no order. Changes are numbered by the printed parent chain.

# Study 1 — method: RNAcompete; molecule type: RNA; medium: in vitro; concentration: 20 nM; notes: 7-mer, probes averaged, single round; baseline: mean of 7-mers; reading: higher = stronger binding
# Target: PABPC1L2, full length, GST fusion (mouse, UniProt A0ABA7IW68)
# Target sequence (chain): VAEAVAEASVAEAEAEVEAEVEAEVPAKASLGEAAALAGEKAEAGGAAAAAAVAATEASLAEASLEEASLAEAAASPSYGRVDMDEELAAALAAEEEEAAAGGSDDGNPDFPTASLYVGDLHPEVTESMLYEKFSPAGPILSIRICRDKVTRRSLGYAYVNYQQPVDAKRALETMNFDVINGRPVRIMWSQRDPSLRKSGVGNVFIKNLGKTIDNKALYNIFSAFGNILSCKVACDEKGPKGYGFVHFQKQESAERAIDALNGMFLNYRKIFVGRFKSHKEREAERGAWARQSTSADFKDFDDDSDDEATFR
Sequence,7-mer Z-score
AUAACGC,-0.0174
GGCAAAA,4.7
CAUAGAG,-0.137
CAUUCUA,-0.383
CGCCGGG,-0.273
CGCUCUU,-0.257
GGAAGCU,-0.157
GAUGAAG,-0.0754

# Study 2 — method: protein binding microarray; molecule type: double-stranded DNA, one strand shown; medium: in vitro; concentration: not given; baseline: not given; reading: higher = stronger binding
# Target: Histone acetyltransferase KAT6A, winged helix 1, GST fusion (KAT6A, Homo sapiens, UniProt Q92794, residues 1-85)
# Notes: 8-mer, flanks averaged, mean of 2 arrays, mostly near background
# Construct (chain): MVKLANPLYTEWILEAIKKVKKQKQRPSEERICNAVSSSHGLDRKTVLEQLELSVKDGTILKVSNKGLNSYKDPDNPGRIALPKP
Sequence,E-score
AATTAAAT,-0.117
ACCACAGG,-0.155
GAGCCTAC,-0.143
CTACGTAC,-0.0407
AACAGTCT,-0.0822
AGATAAAC,-0.0642
GTGATAAA,6.5e-05
CAACCCCA,-0.0757

# Study 3 — method: RNA Bind-n-Seq; molecule type: RNA; medium: in vitro; concentration: not given; notes: 4-mer, random 30-nt RNA, single round; together with: RocA, ADP, phosphate; baseline: input library; reading: higher = stronger binding
# Target: ATP-dependent RNA helicase DDX3X, helicase core (DDX3X, Homo sapiens, UniProt O00571, residues 132-607)
# Chain of UniProt O00571 (132-607, looked up): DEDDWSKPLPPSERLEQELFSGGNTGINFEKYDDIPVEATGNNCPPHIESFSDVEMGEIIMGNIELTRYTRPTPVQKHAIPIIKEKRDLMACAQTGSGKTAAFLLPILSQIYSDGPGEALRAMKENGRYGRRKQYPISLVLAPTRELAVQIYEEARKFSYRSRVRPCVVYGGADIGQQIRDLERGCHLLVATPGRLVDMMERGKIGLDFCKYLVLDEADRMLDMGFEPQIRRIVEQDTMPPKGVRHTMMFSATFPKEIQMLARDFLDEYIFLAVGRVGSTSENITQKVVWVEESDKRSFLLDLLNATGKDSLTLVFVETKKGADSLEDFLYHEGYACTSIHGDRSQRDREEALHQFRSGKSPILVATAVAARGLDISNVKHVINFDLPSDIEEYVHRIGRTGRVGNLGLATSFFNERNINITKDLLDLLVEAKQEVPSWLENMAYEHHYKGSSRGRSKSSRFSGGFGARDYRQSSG
Sequence,4-mer enrichment
CAUC,0.676 fold
CUUG,0.843 fold
GGCC,0.717 fold
GAGU,2.55 fold
CUGC,0.719 fold
CUGA,0.952 fold
AACG,0.89 fold
UGUA,1.08 fold

# Other studies, line by line
# Starting sequence: viral docking peptide; YKVKRRLVFGADD; partner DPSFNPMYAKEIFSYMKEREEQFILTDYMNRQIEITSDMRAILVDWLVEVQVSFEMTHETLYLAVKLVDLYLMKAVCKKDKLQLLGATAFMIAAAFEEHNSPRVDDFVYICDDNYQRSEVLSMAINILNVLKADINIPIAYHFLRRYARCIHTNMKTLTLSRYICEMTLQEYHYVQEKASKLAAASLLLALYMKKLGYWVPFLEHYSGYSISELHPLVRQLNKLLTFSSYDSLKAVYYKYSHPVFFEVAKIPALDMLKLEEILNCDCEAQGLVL
Variant,target,assay,test system,conditions,scale,measurement,value
YKVKRALVFGADD [R6A],"CCNB3, cyclin fold, Cln2 fusion (human)","yeast growth competition, sequencing",yeast,strong parent motif,"baseline: not given, higher = stronger binding",normalised enrichment score,0.7

# Some of these lines once more (study 1):
Sequence,7-mer Z-score
CAUUCUA,-0.383
CGCCGGG,-0.273
CGCUCUU,-0.257
